# Results from different studies.
# Organism: Bacillus subtilis
Structure (SMILES),test,test system,setting,MIC
c1ccc(CCNC2CCCc3c2[nH]c2ccc(C4CCCCC4)cc32)cc1 (stereo not shown),"microbial growth, broth dilution",ATCC6051,,3 µg/mL
CC[C@H](C)[C@H](NC(=O)[C@H](CCCCN)NC(=O)[C@H](CC(N)=O)NC(=O)[C@H](Cc1c[nH]c2ccccc12)NC(=O)[C@H](Cc1ccccc1)NC(=O)[C@H](CCCCN)NC(=O)[C@H](CCCNC(=N)N)NC(=O)[C@H](CC(C)C)NC(=O)[C@H](Cc1c[nH]c2ccccc12)NC(=O)[C@H](CCCCN)NC(=O)[C@H](CCCNC(=N)N)NC(=O)[C@H](CC(C)C)NC(=O)CNC(C)=O)C(=O)N[C@@H](CCCCN)C(=O)N[C@@H](CCCNC(=N)N)C(N)=O,broth microdilution,ATCC 6633,,3.12 µM
CC[C@H](C)[C@H](N)C1=N[C@H](C(=O)N[C@@H](CC(C)C)C(=O)N[C@H](CCC(=O)O)C(=O)N[C@H](C(=O)N[C@H]2CCCCNC(=O)[C@H](CC(N)=O)NC(=O)[C@@H](CC(=O)O)NC(=O)[C@H](Cc3c[nH]cn3)NC(=O)[C@@H](CC(C)C)NC(=O)[C@H]([C@@H](C)CC)NC(=O)[C@@H](CCCN)NC2=O)[C@@H](C)CC)CS1,,168,"18 h, 37 °C, added: ZnSO4 0.3 mM",64 µg/mL
CC(C)C[C@@H]1NC(=O)[C@H](CCCCN)NC(=O)CSC[C@@H]2NC(=O)[C@H](CC(C)C)NC(=O)[C@H](CC(C)C)NC(=O)[C@H](CCCCN)NC(=O)[C@H](CCCCNC(=O)[C@H](CCCCN)NC1=O)NC(=O)[C@H](CCCCN)NC(=O)[C@H](CC(C)C)NC(=O)[C@H](CCCCN)NC(=O)CSC[C@@H](C(=O)N[C@@H](CCCCN)C(N)=O)NC(=O)[C@H](CCCCN)NC(=O)[C@H](CC(C)C)NC(=O)[C@H](CC(C)C)NC2=O,,BR 151,18 h,32 µg/mL
CN[C@@H]1[C@H](O)[C@H](NC)[C@H]2O[C@]3(O)[C@H](O[C@@H]2[C@H]1O)O[C@H](C)C[C@@]3(O)CNCc1ccc(OC(F)(F)F)cc1,,ATCC 23857,,100 µg/mL
CC[C@H](C)[C@H](NC(=O)[C@@H](Cc1ccccc1)NC)C(=O)N[C@@H](CO)C(=O)N[C@H](CCCNC(=N)N)C(=O)N[C@@H](C(=O)N[C@H](C(=O)OC[C@H](N)C(=O)N[C@H]1C(=O)N[C@@H](C)C(=O)N[C@@H](CC(C)C)C(=O)N[C@@H]([C@@H](C)CC)C(=O)O[C@H]1C)[C@@H](C)CC)[C@@H](C)CC,broth microdilution,"ATCC 6051, Mueller-Hinton broth","16 h, 37 °C",≤ 0.0078 µg/mL
CC(C)C[C@H](NC(=O)[C@H](CC(C)C)NC(=O)[C@H](CCCCN)NC(=O)[C@@H]1CCCN1C(=O)[C@H](CC(C)C)NC(=O)[C@H](CC(C)C)NC(=O)[C@H](CCCCN)NC(=O)[C@H](CC(C)C)NC(=O)[C@H](CC(C)C)NC(=O)[C@H](CO)NC(=O)CNC(=O)[C@H](CC(C)C)NC(=O)[C@@H](N)CC(C)C)C(N)=O,broth microdilution,,,3.12 µM
CC(C)C[C@@H]1NC(=O)CSC[C@@H](C(=O)N[C@@H](CCCCN)C(N)=O)NC(=O)[C@H](CC(C)C)NC(=O)[C@H](CC(C)C)NC(=O)[C@H](CC(C)C)NC(=O)[C@@H]2CSCC(=O)N[C@@H](CC(C)C)C(=O)N[C@@H](CC(C)C)C(=O)N[C@@H](CCCCN)C(=O)N[C@@H](CCCCNC(=O)[C@H](CCCCN)NC(=O)[C@H](CC(C)C)NC1=O)C(=O)N[C@@H](CCCCN)C(=O)N[C@@H](CCCCN)C(=O)N[C@@H](CC(C)C)C(=O)N2,,BR 151,18 h,4 µg/mL
N=C(N)NCCC[C@@H]1NC(=O)[C@H](CCCNC(=N)N)NC(=O)[C@H](CCCNC(=N)N)NC(=O)[C@H](CCCNC(=N)N)NC(=O)[C@H](Cc2c[nH]c3ccccc23)NC(=O)[C@H](CCCNC(=N)N)NC(=O)[C@H](CCCNC(=N)N)NC(=O)[C@@H](N)CCCCn2cc(nn2)C[C@@H](C(N)=O)NC1=O,,CMCC 63501,"24 h, 37 °C",15.6 µg/mL
CN1C(=O)[C@@H]2NC(=O)[C@@H]3NC(=O)[C@@H](c4ccc(O)cc4)NC(=O)[C@H](NC(=O)C(NCc4ccc(Br)cc4)c4ccc(O)cc4)Cc4c[nH]c5cc(ccc45)-c4cc3cc(c4O)Oc3ccc(cc3)C[C@H]1C(=O)N[C@@H](C(=O)O)c1ccc(O)c(c1)Oc1ccc2cc1 (stereo partly shown),,"168, Mueller-Hinton broth",,2 µg/mL
CC[C@H](C)[C@@H]1NC(=O)CNC(=O)[C@H](CCCCN)NC(=O)[C@H](C)NC(=O)[C@H](CCC(=O)O)NC(=O)[C@H](Cc2ccccc2)NC(=O)[C@H](CO)NC(=O)[C@H](CC(C)C)NC(=O)[C@H](C(C)C)NC(=O)[C@H](CC(=O)O)NC(=O)[C@@H](NC(=O)[C@@H](NC(=O)[C@@H](N)C(C)C)[C@@H](C)O)CSSC[C@@H]2NC(=O)[C@H](CO)NC(=O)CNC(=O)CNC(=O)[C@H](CCCCN)NC(=O)[C@H](CCCCN)NC(=O)[C@H](CCCNC(=N)N)NC(=O)[C@H](CC(C)C)NC(=O)[C@H](C)NC(=O)[C@H]([C@@H](C)CC)NC(=O)[C@H](CSSC[C@@H](C(=O)N[C@@H](CCCNC(=N)N)C(=O)N[C@@H](CC(N)=O)C(=O)O)NC(=O)[C@H](C(C)C)NC(=O)[C@H](C)NC(=O)[C@H](C(C)C)NC(=O)CNC(=O)[C@H](CC(N)=O)NC(=O)[C@H](CCC(N)=O)NC2=O)NC(=O)[C@H](Cc2c[nH]cn2)NC(=O)[C@H](CC(C)C)NC(=O)[C@H](C)NC(=O)[C@H](C)NC(=O)[C@H](C)NC(=O)[C@H](CO)NC(=O)[C@H](Cc2c[nH]cn2)NC(=O)[C@H](CC(N)=O)NC(=O)[C@H](C(C)C)NC(=O)[C@H](C)NC1=O,broth microdilution,KCTC 3068,"16 h, 37 °C",> 100 µM
CCCCCCCCCC(=O)NCCCC[C@H](NC(=O)[C@H](CCCCN)NC(=O)[C@@H]1CSCC(=O)N[C@@H](CCCCN)C(=O)N[C@@H](CC(C)C)C(=O)N[C@@H](CCCCN)C(=O)N[C@H]2CCCCNC(=O)[C@H](CCCCN)NC(=O)[C@H](CC(C)C)NC(=O)[C@H](CCCCN)NC(=O)CSC[C@H](NC(=O)[C@H](CC(C)C)NC(=O)[C@H](CC(C)C)NC(=O)[C@H](CCCCN)NC2=O)C(=O)N[C@@H](CC(C)C)C(=O)N[C@@H](CC(C)C)C(=O)N[C@@H](CC(C)C)C(=O)N1)C(N)=O,,BR 151,18 h,4 µg/mL
CC[C@H](C)[C@H](NC(=O)[C@@H](Cc1ccccc1)NC)C(=O)N[C@@H](CO)C(=O)N[C@H](CCC(N)=O)C(=O)N[C@@H](C(=O)N[C@H](C(=O)N[C@@H](CO)C(=O)N[C@H]1C(=O)N[C@@H](C)C(=O)N[C@@H](C2CCCCC2)C(=O)N[C@@H]([C@@H](C)CC)C(=O)O[C@H]1C)[C@@H](C)CC)[C@@H](C)CC,broth microdilution,"ATCC 6051, Mueller-Hinton broth","16 h, 37 °C",0.125 µg/mL
CC(C)C[C@@H]1NC(=O)[C@H](CC(C)C)NC(=O)[C@H](CCCCN)NC(=O)CSC[C@@H]2NC(=O)[C@H](CC(C)C)NC(=O)[C@H](CC(C)C)NC(=O)[C@H](CCCCN)NC(=O)[C@H](CCCCNC1=O)NC(=O)[C@H](CC(C)C)NC(=O)[C@H](CC(C)C)NC(=O)[C@H](CCCCN)NC(=O)CSC[C@@H](C(=O)N[C@@H](CCCCN)C(N)=O)NC(=O)[C@H](CCCCN)NC(=O)[C@H](CC(C)C)NC(=O)[C@H](CCCCN)NC2=O,,BR 151,18 h,32 µg/mL
Cc1cccc(C)c1SCC1OC(OC2C(N)CC(N)C(OC3OC(CN)C(O)CC3N)C2O)C(O)C(N)C1O (stereo not shown),,168,,37.5 µg/mL
CN1C(=O)[C@@H]2NC(=O)[C@@H]3NC(=O)[C@@H](c4ccc(O)cc4)NC(=O)[C@H](NC(=O)C(NCc4cccc(-c5ccc(F)cc5)c4)c4ccc(O)cc4)Cc4c[nH]c5cc(ccc45)-c4cc3cc(c4O)Oc3ccc(cc3)C[C@H]1C(=O)N[C@@H](C(=O)O)c1ccc(O)c(c1)Oc1ccc2cc1 (stereo partly shown),,"168, Mueller-Hinton broth",,> 128 µg/mL
CC(C)C[C@@H]1NC(=O)[C@H](CCCCN)NC(=O)CSC[C@@H](C(=O)N[C@@H](CCCCN)C(N)=O)NC(=O)[C@H](CCCCN)NC(=O)[C@H](CC(C)C)NC(=O)[C@H](CC(C)C)NC(=O)[C@@H]2CSCC(=O)N[C@@H](CCCCN)C(=O)N[C@@H](CC(C)C)C(=O)N[C@@H](CCCCN)C(=O)N[C@@H](CCCCNC(=O)[C@H](CCCCN)NC1=O)C(=O)N[C@@H](CCCCN)C(=O)N[C@@H](CC(C)C)C(=O)N[C@@H](CC(C)C)C(=O)N2,,BR 151,18 h,16 µg/mL
CN1C(=O)[C@@H]2NC(=O)[C@@H]3NC(=O)[C@@H](c4ccc(O)cc4)NC(=O)[C@H](NC(=O)C(NCc4ccc(B(O)O)cc4)c4ccc(O)cc4)Cc4c[nH]c5cc(ccc45)-c4cc3cc(c4O)Oc3ccc(cc3)C[C@H]1C(=O)N[C@@H](C(=O)O)c1ccc(O)c(c1)Oc1ccc2cc1 (stereo partly shown),,"168, Mueller-Hinton broth",,1 µg/mL
CC[C@H](C)[C@H](NC(=O)[C@H](CCCCN)NC(=O)[C@H](CC(N)=O)NC(=O)[C@H](CC(C)C)NC(=O)[C@H](Cc1ccccc1)NC(=O)[C@H](CCCCN)NC(=O)[C@H](CCCCNC(=N)N)NC(=O)[C@H](CC(C)C)NC(=O)[C@H](CC(C)C)NC(=O)[C@H](CCCCN)NC(=O)[C@H](CCCCNC(=N)N)NC(=O)[C@H](CC(C)C)NC(=O)CNC(C)=O)C(=O)N[C@@H](CCCCN)C(=O)N[C@@H](CCCCNC(=N)N)C(N)=O,broth microdilution,ATCC 6633,,3.12 µM

# Excerpt of the above:
Structure (SMILES),test,test system,setting,MIC
CN1C(=O)[C@@H]2NC(=O)[C@@H]3NC(=O)[C@@H](c4ccc(O)cc4)NC(=O)[C@H](NC(=O)C(NCc4cccc(-c5ccc(F)cc5)c4)c4ccc(O)cc4)Cc4c[nH]c5cc(ccc45)-c4cc3cc(c4O)Oc3ccc(cc3)C[C@H]1C(=O)N[C@@H](C(=O)O)c1ccc(O)c(c1)Oc1ccc2cc1 (stereo partly shown),,"168, Mueller-Hinton broth",,> 128 µg/mL
